Results gathered from unrelated publications.
Every numbered part comes from another study and shows a few of its results, in no order. Positions count from the first letter of the parent shown.

Series 1
Target: Ras GTPase-activating protein-binding protein 1, full length (G3BP1, Homo sapiens, UniProt Q13283)
UniProt Q13283, sequence (whole entry, looked up): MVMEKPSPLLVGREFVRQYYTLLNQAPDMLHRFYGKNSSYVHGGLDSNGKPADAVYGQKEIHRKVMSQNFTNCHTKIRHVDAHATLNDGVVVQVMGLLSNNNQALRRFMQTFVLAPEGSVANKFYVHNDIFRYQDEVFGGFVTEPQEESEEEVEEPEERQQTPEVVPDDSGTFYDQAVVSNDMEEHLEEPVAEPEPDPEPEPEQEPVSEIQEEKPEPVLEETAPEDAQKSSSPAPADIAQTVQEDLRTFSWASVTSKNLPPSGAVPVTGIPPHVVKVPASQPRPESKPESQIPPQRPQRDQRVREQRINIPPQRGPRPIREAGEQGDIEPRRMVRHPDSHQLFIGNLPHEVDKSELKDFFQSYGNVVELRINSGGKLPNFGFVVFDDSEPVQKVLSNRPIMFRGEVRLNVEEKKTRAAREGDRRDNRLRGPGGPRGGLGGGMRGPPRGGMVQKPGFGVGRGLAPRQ
Method: RNA Bind-n-Seq
Molecule type: RNA
Sample: in vitro
Concentration: 200 nM
Notes: whole 134-nt RNA, ends assumed
With: 150 mM LiCl
Reference: input library
Direction: higher = stronger binding
Each molecule: 7-deaza-guanosine replaces G
Shared flanks, not repeated: GGGAGUUCUACAGUCCGACGAUC … UGGAAUUCUCGGGUGUCAAGG
For `UGGGAGGUGGAUUUUGUUUAUUUUUUUAGCUCAUUUCCAGGGGAGGGAAUUUUUUUUUAAUAUGUGUCAUGAAUAAAGUUGUUUUUGAAA`, the log2 enrichment was -0.678.
With `GCAGGAAGUAAAAACAAAUGGAAAUGCUUCGGAUAGUGGCAGGGGUGGGGGUUGCUAAGGAAAGGGUGGGAUGGGAGUGGCUAAAGAGUU` the log2 enrichment was 0.112.
With `UCCUGUGCUACACAUCGUAUGUACCGAAUCGGUUUUUUGGGGUUUUUUGGGUUUUUUGGGAAAGUAUUAUGUUACGCCGUUCGGAUCUGC` the log2 enrichment was 0.503.
`CCUCAAGUCCUGUGCUACACAUCGUAUGUACCGAAUCGGGUUGGUUGGUUGGAAAGUAUUAUGUUACGCCGUUCGGAUCUGCACUUCCAG` has a log2 enrichment of -0.194.
`UCAAGUCCUGUGCUACACAUCGUAUGUACCGAAUCGGGUGGGUGGGUUUUUGGGAAAGUAUUAUGUUACGCCGUUCGGAUCUGCACUUCC` has a log2 enrichment of -1.22.
`AAGUCCUGUGCUACACAUCGUAUGUACCGAAUCGGGUUUUUUUGGGUUUGGGAGGGAAAGUAUUAUGUUACGCCGUUCGGAUCUGCACUU` gave a log2 enrichment of -0.372.
For `CUCAAGUCCUGUGCUACACAUCGUAUGUACCGAAUCGGGCGGGGCGGGGCGGGGAAAGUAUUAUGUUACGCCGUUCGGAUCUGCACUUCC`, the log2 enrichment was 0.0835.
For `GCAGGAAGUAAAAACAAAUGGAAAUGCUUCGGAUAGUGGCAGGGGUGGGGGUUGCUAAGGAAAGGGUGGGAUGGGAGUGGGUAAAGAUUU`, the log2 enrichment was 0.125.

Series 2
Target: UBE2U UBC core domain (UniProt Q5VVX9)
Method: yeast two-hybrid
Sample: yeast
Notes: mostly zero background
Reference: not given
Direction: higher = stronger interaction
B1: CNOT4 RING domain (UniProt O95628); chain MSRSPDAKEDPVECPLCMEPLEIDDINFFPCTCGYQICRFCWHRIRTDENGLCPACRKPYPED
B2: RUFY1 RING domain (UniProt Q96T51); chain QALKGHAWLKDDEATHCRQCEKEFSISRRKHHCRNCGHIFCNTCSSNELALPSYPKPVRVCDSCHTLLLQRCSSTAS
B3: MKRN3 RING domain (UniProt Q13064); chain FAVQRGMDKVCGICMEVVYEKANPNDRRFGILSNCNHSFCIRCIRRWRSARQFENRIVKSCPQCRVTSELVIPSE
B4: RING1 RING domain (UniProt Q06587); chain SPRSLHSELMCPICLDMLKNTMTTKECLHRFCSDCIVTALRSGNKECPTCRKKLVSKRSLR
B5: RNF182 RING domain (UniProt Q8N6D2); chain AESQASDELECKICYNRYNLKQRKPKVLECCHRVCAKCLYKIIDFGDSPQGVIVCPFCRFETCLPDDEV
B6: RNF6 RING domain (UniProt Q9Y252); chain NSIDSELGKICSVCISDYVTGNKLRQLPCMHEFHIHCIDRWLSENCTCPICRQPVLGSNIAN
B7: BFAR RING domain (UniProt Q9NZS9); chain GPQISVSEFSCHCCYDILVNPTTLNCGHSFCRHCLALWWASSKKTECPECREKWEGFPKVS
B8: ZMYND11 RING domain (UniProt Q15326); chain DEIDWETENHDWYCFECHLPGEVLICDLCFRVYHSKCLSDEFRLRDSSSPWQCPVCRSIKKKNTNKQEM
Residues (chain): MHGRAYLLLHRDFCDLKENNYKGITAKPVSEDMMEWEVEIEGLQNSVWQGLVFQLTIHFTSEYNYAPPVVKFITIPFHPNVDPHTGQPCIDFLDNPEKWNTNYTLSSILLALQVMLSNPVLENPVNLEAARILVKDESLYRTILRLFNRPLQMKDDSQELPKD
Under “lacZ reporter activity”, `B1 (CNOT4 RING domain)` is recorded as 0.
`B2 (RUFY1 RING domain)` — result for “lacZ reporter activity”: 14700.
For `LVKDFNPYITCYICKGYLIKPTTVTECLHTFCKTCIVQHFEDSNDCPRCGNQVHETNPLE (PCGF5 RING domain (UniProt Q86SE9))`, “lacZ reporter activity” read 0.
`B3 (MKRN3 RING domain)`: “lacZ reporter activity” 0.
`B4 (RING1 RING domain)` — result for “lacZ reporter activity”: 8950.
For `B5 (RNF182 RING domain)`, “lacZ reporter activity” read 0.
`FAEQPSVKLCCQLCCSVFKDPVITTCGHTFCRRCALKSEKCPVDNVKLTVVVNNI (TRAF7 RING domain (UniProt Q6Q0C0))`: “lacZ reporter activity” 0.
Under “lacZ reporter activity”, `FDPPLESKYECPICLMALREAVQTPCGHRFCKACIIKSIRDAGHKCPVDNEILLENQLFP (TRAF6 RING domain (UniProt Q9Y4K3))` is recorded as 9660.
Under “lacZ reporter activity”, `B6 (RNF6 RING domain)` is recorded as 0.
`B7 (BFAR RING domain)` — result for “lacZ reporter activity”: 12200.
`B8 (ZMYND11 RING domain)`: “lacZ reporter activity” 0.

Series 3
Target: ABI1, truncated, D143A, DHFR fusion (Arabidopsis thaliana)
Method: DHFR PCA, deep sequencing
Sample: yeast
Notes: methotrexate growth selection, single substitutions
With: (+)-ABA 58 µM
Reference: wild-type fitted maximum
Direction: higher = stronger binding
Parent: PYL1, truncated, DHFR fusion (Arabidopsis thaliana); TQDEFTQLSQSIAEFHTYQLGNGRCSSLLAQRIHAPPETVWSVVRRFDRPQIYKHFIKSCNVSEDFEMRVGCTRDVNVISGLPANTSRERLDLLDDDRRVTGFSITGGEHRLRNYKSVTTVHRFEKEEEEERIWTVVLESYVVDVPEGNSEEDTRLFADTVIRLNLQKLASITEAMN
`T6P` — result for “relative binding score”: 100%.
For `R24A`, “relative binding score” read 75%.
`S140P`: “relative binding score” 12.7%.
Under “relative binding score”, `E147I` is recorded as 79.3%.
For `F124A`, “relative binding score” read 87.7%.
Under “relative binding score”, `S26C` is recorded as 85.6%.
Under “relative binding score”, `R69G` is recorded as 77.9%.
`E89A`: “relative binding score” -3.9%.
For `E130R`, “relative binding score” read 92.1%.
`T6E` — result for “relative binding score”: 102%.
`G21N`: “relative binding score” 85.5%.
`V143I`: “relative binding score” 19%.
Under “relative binding score”, `L20D` is recorded as 89.6%.
For `D3H`, “relative binding score” read 80.2%.
`C60V` — result for “relative binding score”: 82%.
`S9W`: “relative binding score” 72.3%.
`Q167Y`: “relative binding score” 59.8%.
`Y115L`: “relative binding score” 18.3%.
Under “relative binding score”, `I79N` is recorded as 64.5%.

Series 4
Target: CCNE2, cyclin fold, Cln2 fusion (human)
Method: yeast growth competition, sequencing
Sample: yeast
Notes: strong parent motif
Reference: not given
Direction: higher = stronger binding
Parent: GMNC docking peptide (human); KNAKRNLSSEFAN
`E10H`: “normalised enrichment score” 0.83.
For `N2H`, “normalised enrichment score” read 1.41.
Under “normalised enrichment score”, `R5G` is recorded as -0.0727.
`S9F` — result for “normalised enrichment score”: 2.3.
`A3Y` — result for “normalised enrichment score”: 1.42.
For `S9G`, “normalised enrichment score” read 1.01.
`E10T`: “normalised enrichment score” 0.779.
Under “normalised enrichment score”, `S8R` is recorded as 0.967.
For `L7D`, “normalised enrichment score” read 0.644.
Under “normalised enrichment score”, `A12I` is recorded as 1.52.
Under “normalised enrichment score”, `K4F` is recorded as 0.772.
`A3Q` — result for “normalised enrichment score”: -0.0426.
For `N2P`, “normalised enrichment score” read 1.28.
For `S9N`, “normalised enrichment score” read 1.44.
Under “normalised enrichment score”, `A12H` is recorded as 1.07.
`E10W` — result for “normalised enrichment score”: 1.7.
`N6E` — result for “normalised enrichment score”: 0.748.
For `S9I`, “normalised enrichment score” read 1.78.
Under “normalised enrichment score”, `K4W` is recorded as 0.504.
`S8E`: “normalised enrichment score” 0.791.

Excerpt of the above (series 4):
`S9F` — result for “normalised enrichment score”: 2.3.
`A3Y` — result for “normalised enrichment score”: 1.42.
For `S9G`, “normalised enrichment score” read 1.01.
`E10T`: “normalised enrichment score” 0.779.
Under “normalised enrichment score”, `S8R` is recorded as 0.967.
For `L7D`, “normalised enrichment score” read 0.644.
Under “normalised enrichment score”, `A12I` is recorded as 1.52.
Under “normalised enrichment score”, `K4F` is recorded as 0.772.
`A3Q` — result for “normalised enrichment score”: -0.0426.
